Results pooled from the literature.
Numbered parts are unrelated; each lists some results of a single study. Positions count from the first letter of the parent shown.

Set 1
Target: Ras GTPase-activating protein-binding protein 1, RRM domain (G3BP1, Homo sapiens, UniProt Q13283)
Sequence of UniProt Q13283 (whole entry, looked up): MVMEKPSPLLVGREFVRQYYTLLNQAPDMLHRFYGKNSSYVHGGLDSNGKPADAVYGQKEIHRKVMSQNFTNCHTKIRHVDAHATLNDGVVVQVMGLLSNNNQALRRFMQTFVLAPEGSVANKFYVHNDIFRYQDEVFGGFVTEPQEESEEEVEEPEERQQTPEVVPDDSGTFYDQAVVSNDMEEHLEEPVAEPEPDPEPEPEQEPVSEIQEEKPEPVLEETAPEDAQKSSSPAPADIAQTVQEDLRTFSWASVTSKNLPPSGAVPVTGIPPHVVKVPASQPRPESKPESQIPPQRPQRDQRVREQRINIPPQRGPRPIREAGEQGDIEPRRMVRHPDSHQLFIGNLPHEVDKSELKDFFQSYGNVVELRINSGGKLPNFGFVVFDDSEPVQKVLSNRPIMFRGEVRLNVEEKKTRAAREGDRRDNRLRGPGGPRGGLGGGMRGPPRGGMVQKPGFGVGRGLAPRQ
Method: RNA Bind-n-Seq
Form: RNA
Matrix: in vitro
Concentration: 1 µM
Notes: whole 134-nt RNA, ends assumed
Together with: 150 mM KCl
Relative to: input library
Reading: higher = stronger binding
Constant ends, left off below: GGGAGUUCUACAGUCCGACGAUC … UGGAAUUCUCGGGUGUCAAGG
Strand	log2 enrichment
CUCAAGUCCUGUGCUACACAUCGUAUGUACCGAAUCGGGGUGGGGUGGGUGGGGAAAGUAUUAUGUUACGCCGUUCGGAUCUGCACUUCC	0.126
AAGUCCUGUGCUACACAUCGUAUGUACCGAAUCGGGGUUUGGGGAGGGGUUUGGGGAAAGUAUUAUGUUACGCCGUUCGGAUCUGCACUU	0.845
UCCCGACAUCUGUGGCCCUGGCACCAAGAAGGUUCAUGUCAUCUUCAACUACAAGGGCAAGAACGUGCUGAUCAACAAGGACAUCCGUUG	0.00442
GCAGGAAGUAAAAACAAAUGGAAAUGCUUCGGAUAGUGGCAGGGGAAAGGGUUGCUAAGGAAAGGGUGGGAUGGGAGUGGGUAAAGAGUU	0.897
GCAGGAAGUAAAAACAAAUGGAAAUGCUUCGGAUAGUGGCAGGGGUGGGGGUUGCUAAGGAAAGGGUGGGAUGGGAGUGGGUAGAGAGUU	0.699
UGGCCCUGGUGGCAUGCGGGGAGGAAGAGGUGGCCUCAUGGAUCGUGGUGGUCCCGGUGGAAUGUUCAGAGGUGGCCGUGGUGGACACAG	2.08
UGUUGCCGUGUGUCUCACCCUACCAUUUCAGAAAAAUGUUCGUUGGUGGCCUGAGCUGGGAUACUAGCAAAAAAGAUUUAAAAGACUAUU	-0.207

Set 2
Target: Centromere-binding protein 1, full length, N-terminal tag (CBF1, Saccharomyces cerevisiae, UniProt P17106, residues 1-351)
Sequence of UniProt P17106 (whole entry, looked up): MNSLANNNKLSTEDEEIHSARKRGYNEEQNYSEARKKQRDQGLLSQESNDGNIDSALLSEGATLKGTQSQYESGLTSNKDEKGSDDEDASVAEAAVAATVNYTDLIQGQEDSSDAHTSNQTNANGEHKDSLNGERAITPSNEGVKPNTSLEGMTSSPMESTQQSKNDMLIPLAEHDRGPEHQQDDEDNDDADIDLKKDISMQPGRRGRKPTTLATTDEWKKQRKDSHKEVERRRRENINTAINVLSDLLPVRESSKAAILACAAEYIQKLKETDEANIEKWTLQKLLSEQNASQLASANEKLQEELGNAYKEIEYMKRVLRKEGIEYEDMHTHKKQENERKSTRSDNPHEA
Method: protein-binding microarray
Form: double-stranded DNA, one strand shown
Matrix: in vitro
Concentration: 0.8 µM
Notes: whole 60-bp probe, no competitor
Reading: higher = stronger binding
Constant ends, left off below: … GTCTTGATTCGCTTGACGCTGCTG
Strand	fluorescence intensity [a.u.]
GAACAAAAAAAGAATGGCGTGGGGTGGGGTGATTAG	536
CTACTACCTTCACTGCACGAAACCAAAAGCGACTTC	596
GAATTTTGTTTCGTCCACCTGACCGAGCCGGCATAG	1920
GAAGTGGCGCGCGATCACGGAGTTGCGTAACTGTAG	546
GAATCTGATCTATTTCACGCCCAGAAAAAAGGCTAG	2230
CTAGTGGCTTCTTGTCACGCCATACGTTACGCGTTC	886
GAATGTGTCTGCAGCCACGTGCAAAGTACGGTCTAG	3940

Set 3
Target: CCNB1, cyclin fold, Cln2 fusion (human)
Method: yeast growth competition, sequencing
Matrix: yeast
Notes: weak parent motif
Relative to: not given
Reading: higher = stronger binding
Parent: CDKN1A docking peptide (human); SKACRRLFGPVDS
Substitution	normalised enrichment score
SKACCRLFGPVDS [R5C]	0.0887
SKACRRCFGPVDS [L7C]	0.384
SKACRRLSGPVDS [F8S]	0.194
SKACRILFGPVDS [R6I]	-0.0859
SKACRMLFGPVDS [R6M]	0.23
SKACHRLFGPVDS [R5H]	0.0954
SKACRRLFGPVCS [D12C]	0.0103

Mixed results
Substance	target	assay	test system	setting	scale	endpoint	value
PhoQ, residues 284 288 289 292 302 303 NLGVHL	PhoP, residues 12 14 15 18 19 NHFRA (Escherichia coli, UniProt P23836)	Sort-seq, refers to: YFP reporter	E. coli	PhoQ-PhoP variant library, together with: 10 µM Mg2+	relative to: high Mg2+ state, higher = stronger signaling	fold induction	9.23

For quick reference, copied from above (set 2):
Strand	fluorescence intensity [a.u.]
GAAGTGGCGCGCGATCACGGAGTTGCGTAACTGTAG	546
